Measurements collected from several papers.
Every numbered part comes from another study and shows a few of its results, in no order.

Set 1 — technique: RNA Bind-n-Seq; molecule type: RNA; sample: in vitro; concentration: 200 nM; setting: whole 134-nt RNA, ends assumed; added: 150 mM LiCl; relative to: input library; direction: higher = stronger binding; all molecules: 7-deaza-guanosine replaces G
Target: Fragile X messenger ribonucleoprotein 1, C-terminal low-complexity region (Fmr1, Mus musculus, UniProt P35922)
Constant ends, left off below: GGGAGUUCUACAGUCCGACGAUC … UGGAAUUCUCGGGUGUCAAGG
Sequence	log2 enrichment
CCUGUGCUACACAUCGUAUGUACCGAAUCGGGUUUUUUUGGUUUUUUUGGUUUUUUUGGGGAAAGUAUUAUGUUACGCCGUUCGGAUCUG	-0.865
AGUCCUGUGCUACACAUCGUAUGUACCGAAUCGGGCCCCGGGCCCCGGGGCCCCGGGAAAGUAUUAUGUUACGCCGUUCGGAUCUGCACU	-0.543
UAACUUUAGAGGAGGAUCUGAUGGAUAUGGCAGUGGACGUGGAUUCGGGGAUGGCUAUAAUGGGUAUGGAGGAGGACCUGGAGGUGGCAA	-0.314
GCAGGAAGUAAAAACAAAUGGAAAUGCUUCGGAUAGUGGCAGGGGUGGGGGUUUCUAAGGAAAGGGUGGGAUGGGAGUGGGUAAAGAGUU	1.18
UGGGAGGUGGAUUUUGUUUAUUUUUUUAGCUCAUUUCCAGGGUUGGGAAUUUUUUUUUAAUAUGUGUCAUGAAUAAAGUUGUUUUUGAAA	-1.07
AGUCCUGUGCUACACAUCGUAUGUACCGAAUCGGGAAAAAGGGUUUGGGUUUUUGGGAAAGUAUUAUGUUACGCCGUUCGGAUCUGCACU	-2.35
UGCUCUCCGUGCCACAUGCGCCCGCAGGUUACGCCAAGGAGGCCCUGAAUCUGGCGCAGAUGCAGGAGCAGACGCUGCAGUUGGAGCAAC	-4.18
UCCUGUGCUACACAUCGUAUGUACCGAAUCGGGAAAAAGGGGAAAAAGGGGAAAAAGGGAAAGUAUUAUGUUACGCCGUUCGGAUCUGCA	-0.371
UCAAGUCCUGUGCUACACAUCGUAUGUACCGAAUCGGGAGGGUGGGUUUUUGGGAAAGUAUUAUGUUACGCCGUUCGGAUCUGCACUUCC	-1.44
GCAGGAAGUGAAAACAAAUGGAAAUGCUUCGGAUAGUGGCAGGGGUGGGGGUUGCUAAGGAAAGGGUGGGAUGGGAGUGGGUAAAGAGUU	1.7
ACCAUGCAGGUGGGCAUCUUUGGGAAGUGGGGCAAGGGGGGAAAAGGGAGGGGGGUAACACUUUGGGAACAGGUGGUCCCAGGUCGUUUC	1.19

Set 2 — technique: protein-binding microarray; molecule type: double-stranded DNA, one strand shown; sample: in vitro; concentration: 2200 nM top; setting: 60-bp whole probe; added: salmon DNA 0.4 mg/ml; relative to: random background probes; direction: higher = stronger binding; constant ends, left off below: GCCTAGCAC … GTCTTGATTCGCTTGACGCTGCTG
Target: Interferon regulatory factor 7, full length, phosphomimetic (IRF7, Homo sapiens, UniProt Q92985, residues 1-503, S471D/S472D/S475D/S476D/S477D/S483D/S484D/S487D)
Residues (chain): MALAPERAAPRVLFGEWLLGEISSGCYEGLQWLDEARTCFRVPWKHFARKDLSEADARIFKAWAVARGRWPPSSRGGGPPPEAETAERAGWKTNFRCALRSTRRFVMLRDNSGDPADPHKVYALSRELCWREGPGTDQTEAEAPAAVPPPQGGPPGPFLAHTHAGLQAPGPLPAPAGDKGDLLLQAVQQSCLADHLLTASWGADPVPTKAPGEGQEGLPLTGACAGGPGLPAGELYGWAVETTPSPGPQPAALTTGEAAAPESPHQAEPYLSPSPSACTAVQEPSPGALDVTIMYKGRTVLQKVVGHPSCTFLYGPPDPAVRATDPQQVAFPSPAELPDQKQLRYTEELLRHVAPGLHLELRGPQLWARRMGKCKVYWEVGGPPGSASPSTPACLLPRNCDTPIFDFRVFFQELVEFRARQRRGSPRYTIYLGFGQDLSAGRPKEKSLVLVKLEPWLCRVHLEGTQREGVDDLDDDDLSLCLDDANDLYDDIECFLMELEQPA
Sequence	fitted relative affinity [z-score]
TTAGAACTGAGACTTGATTAGTGCTAG	-0.919
TTAGGCCTCGGACTGGGTTAGTGCTAG	-0.846
GTAGGACTGGGGTTTCGGTTAGTGCTA	2.22
CCAAGTTTATACCTTAGGTTGTGCTAG	0.321
ACCTATGTGTACCACTAGACGTGCTAG	0.877
TTAGGACTGGGTATCTGTTAGTGCTAG	-0.25
GACGGTCTTGGTTTCGGGACGTGCTAG	2.82
TCAATCATTGCTTTCTCACTGTGCTAG	1.45
TTAGAACTGAAACTGGATTAGTGCTAG	-0.0742
GTAGATTTCGGGTATCGATTAGTGCTA	2.83
TCAGTCACCCATCTCAAACTGTGCTAG	0.909
TTAGGACTGGACTTTCTGTTAGTGCTA	1.31
CTGGGTATTTTTCTAAACCAGTGCTAG	0.26
TCATATATACCTGTATAACTGTGCTAG	1.06
TCAGGGCTACCTCTCTTACTGTGCTAG	-0.378
AGAGTCACCCATCTCAACAAGTGCTAG	0.312
TTTGCTTTACTGATGGCCCTGTGCTAG	1.05
GACGGACTGGACACTAGGGACGTGCTA	-0.671
TTAGGACTGGGGACTGGGTTAGTGCTA	-0.954
AATCTTTTCACTTTCTTTAAGTGCTAG	3.44
GACGGTCTCGGTATCGGGAGGTGCTAG	0.0438
GCCGATATCGGGTTTCGAGACGTGCTA	1.76

Set 3 — technique: protein binding microarray; molecule type: double-stranded DNA, one strand shown; sample: in vitro; concentration: not given; relative to: not given; direction: higher = stronger binding
Target: Histone acetyltransferase KAT6A, winged helix 2, GST fusion (KAT6A, Homo sapiens, UniProt Q92794, residues 85-181)
Setting: 8-mer, flanks averaged, mean of 2 arrays, mostly near background
Target sequence (chain): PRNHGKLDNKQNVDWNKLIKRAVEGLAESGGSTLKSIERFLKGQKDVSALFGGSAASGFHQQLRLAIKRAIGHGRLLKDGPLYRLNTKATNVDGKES
Sequence	E-score
CGCGCGGC	0.279
AATGCACA	0.126
CGTGACCC	0.0591
AGTATGGG	0.0217
CTATGACC	-0.0912
GGTCGACC	0.147
CTCCGTGC	0.124
GAGGCCGA	0.0644
AAGTGACT	-0.181
GCGACAAA	0.0822
AATCAGGA	-0.05
GAAAGTCC	-0.14
AAAAGGCC	-0.0397
AATAACAA	0.0459
AGTGGGTA	0.063
AACTAGGA	-0.0805
CGAATAGC	0.0136
CTGGAATA	-0.00686
CACCTACC	-0.13

Set 4 — technique: RNA Bind-n-Seq; molecule type: RNA; sample: in vitro; concentration: 365 nM; relative to: no-protein control; direction: higher = stronger binding
Target: RNA binding protein fox-1 homolog 2, RRM domain, GST-SBP tag (RBFOX2, Homo sapiens, UniProt O43251-10, residues 100-194)
Setting: natural RNA segment, single round, ends assumed
Constant ends, left off below: GGGAGUUCUACAGUCCGACGAUC … UGGAAUUCUCGGGUGCCAA
Residues (chain): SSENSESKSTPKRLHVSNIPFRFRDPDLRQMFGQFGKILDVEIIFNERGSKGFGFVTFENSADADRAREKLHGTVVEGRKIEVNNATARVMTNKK
Sequence	RBNS enrichment (R)
CUGUGGCCCAGCUCCGAGAGUGAUAUUUGCUCUGGUAGGUGAGGGCCUGAGGGUACAUUUCUCCACCUGUGCCCCCUCAUGUUCACAGAGGAUUUCAGCAGCUGCAACUG	0.593
UACCUUCCAGUGCAAAUCCUGCUCCUUUGAUUUAAUGGGGUGUACUGGGGCCAGGGGCUGAUUCACUUCCUUGGGAGAUGGUGGUGUUUUCAUGAACAUCUUUGAUCCUU	0.307
UGGGCAAGGAAGUGGCUUCAGAGGACGUCCAGCCUCAGCUGGCCCCACGGAGAGCUCCAGGCAGAGCCCACAGUACCACAGUGUGCCCACACCACCGGUUACUGGCUCCU	0.291
AAAAUGAAAAAAAAGUUUACAAAUUUAAGUUGACAAUGAAAUGUGAAGUUGGUCCUAGUUUACAUCUUAGAGGAAUGUAUAUGUAUGUUUUACAUGCCUAAAUAUCUGCA	13.8
CCUGGCACACCCUAGUAGCCGGGUCUGGCCAGGCAGCGCCGCAUGGCUCUGAACAGCAACUCUGUCCCCCUCUGAGGUGAAACGGGAAACACACUGUACAUGUUGUGAAC	0.668
ACAUAAAACAUAUGAGGAAUCUGCAAGGAACACUACAGUUGUGUAAAGUUGUUCUGUUAACUUUUGUACCAAAUAGCAAUACAAACUAGUUGGAACAGUUGGAACUUACA	0.223
CUCUCCUCCCAGUCCCACCCCUUGCCCCACGGAGUCCUGGGGACGCAGUGCCCCAGCUGGGAAGAGGGCGGGAUCGGGCACUGGUUCCUCCUUGUCCCCGCUUUCUUGGG	0.375
UUCCUUCUGGGAAGGCCAGCAUCAUCCUGAAGAUGACCUGUGGGGUUGGUCCUUGAUGGCUGUCCCCUCCACCCUACCCCUGAGAAGGGAAGCUGCCCGUUGCUGCUACU	0.204
GACUCUGUUGCUGGUCUUCUCAGUUCAUUUCCUGAGGUGGAUUUACUGAGAGAAGGUGAAAUAAAGCCAUAUUUAGUAUACCAGAGAAGGUAGAUUUUAAGAAUGGUCUC	0.416
UCCGGAUCACUGUGGUUGGGUGGAGGUCUGUCUGCACUGGGAGCCUCAGGAGGGCUCUGCUCCACCCACUUGGCUAUGGGAGAGCCAGCAGGGGUUCUGGAGAAAGAAAC	0.798
AUAAGAAAUAGGUUUAUUUUUCCAGUGUAAAUUUCAGAAUUUAAAGAAAACUGGUUGUAGUUUACUAUUUUACCUACCUAAAAACAGAUGUGAUGGCUCUUUAAGAAUUG	0.415
UUGAAGAGGCAGAGUGAUUUAGAGAACGAAAUCAGAACCUGGGAACACCAUGACUACUUCAUUUCUAGCUAAAUCAGAACUGCCUUCAACACUGGAGAAAGGGAGAAGUA	0.433

Set 5 — technique: RNAcompete; molecule type: RNA; sample: in vitro; concentration: 20 nM; setting: 7-mer, probes averaged, single round; relative to: mean of 7-mers; direction: higher = stronger binding
Target: PABPC1L2, full length, GST fusion (mouse, UniProt A0ABA7IW68)
Residues (chain): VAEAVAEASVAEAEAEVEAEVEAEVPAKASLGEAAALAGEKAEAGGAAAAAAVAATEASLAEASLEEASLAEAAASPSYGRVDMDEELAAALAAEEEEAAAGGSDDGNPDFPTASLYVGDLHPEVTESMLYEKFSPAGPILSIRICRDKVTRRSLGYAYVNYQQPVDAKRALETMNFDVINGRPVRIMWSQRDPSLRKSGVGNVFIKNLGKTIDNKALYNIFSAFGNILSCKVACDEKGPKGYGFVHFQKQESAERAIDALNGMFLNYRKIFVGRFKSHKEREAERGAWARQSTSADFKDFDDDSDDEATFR
Sequence	7-mer Z-score
CUGCCCU	-0.38
AAGGGUC	0.372
GUGGGGG	0.606
GAAGACU	-0.113
AUUCCUA	-0.193
UUGCCUG	-0.318
GGAUGAG	0.0297
CUAAACC	-0.0337
AAUGCAA	0.283
UCGCGUU	-0.47
AGCCCCA	-0.228
UGCUGGC	-0.242
CUUAGGA	-0.137
AUAAAAG	3.6
CCGGAAA	0.711
GUAAAUU	0.474
UGGGAUA	0.234
ACGCCAG	-0.166
CCGUCGG	-0.412
AGGUUAG	0.00979
GGGCGCU	0.124
AUGUCAC	-0.133
